# Experimental data collected from several papers.
# Numbered parts are unrelated; each lists some results of a single study.

# Study 1 — method: protein binding microarray; molecule type: double-stranded DNA, one strand shown; sample: in vitro; concentration: not given; baseline: not given; reading: higher = stronger binding
# Target: Histone acetyltransferase KAT6A, both winged helices, GST fusion (KAT6A, Homo sapiens, UniProt Q92794, residues 1-181)
# Setting: 8-mer, flanks averaged, mean of 2 arrays, mostly near background
# Target sequence (chain): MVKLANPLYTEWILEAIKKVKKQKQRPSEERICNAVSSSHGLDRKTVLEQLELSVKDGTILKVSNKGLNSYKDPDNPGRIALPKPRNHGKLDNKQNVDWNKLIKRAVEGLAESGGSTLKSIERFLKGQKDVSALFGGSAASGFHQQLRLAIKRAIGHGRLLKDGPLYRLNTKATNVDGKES
Sequence,E-score
AGCGCCAG,0.203
GGATAGAA,-0.016
CCTCTTTA,-0.208
TCAAAGAA,-0.0921
CTCTTCAC,-0.239
AGGTCTCG,-0.128
CGGTTCAA,0.209
ATGTACAT,-0.0135
CTCCCTTC,-0.314
TAGGTAAA,-0.115
ATCGATAA,0.0533
GTGCGTAA,0.121
AGCAGCAC,-0.193
GGGCTGTA,-0.189
GAAGACCA,-0.129
CAATGCAA,-0.137
AGAGAACC,-0.175
CCGACAGC,0.216
GTCACACA,-0.0904
GACTGTTA,-0.021
GCCATCTA,-0.0132
CGGCTTAA,0.328
TACTCTAA,0.00901
AGCTACGC,0.168
AATCACAA,-0.0111

# Study 2 — method: protein-binding microarray; molecule type: double-stranded DNA, one strand shown; sample: in vitro; concentration: 250 nM; setting: 60-bp whole probe; with: salmon DNA 0.4 mg/ml; baseline: random background probes; reading: higher = stronger binding; constant ends, left off below: GCCTAGCAC … GTCTTGATTCGCTTGACGCTGCTG
# Target: Interferon regulatory factor 7, full length, phosphomimetic (IRF7, Homo sapiens, UniProt Q92985, residues 1-503, S101K/S471D/S472D/S475D/S476D/S477D/S483D/S484D/S487D)
# UniProt Q92985, sequence (whole entry, unmodified, looked up): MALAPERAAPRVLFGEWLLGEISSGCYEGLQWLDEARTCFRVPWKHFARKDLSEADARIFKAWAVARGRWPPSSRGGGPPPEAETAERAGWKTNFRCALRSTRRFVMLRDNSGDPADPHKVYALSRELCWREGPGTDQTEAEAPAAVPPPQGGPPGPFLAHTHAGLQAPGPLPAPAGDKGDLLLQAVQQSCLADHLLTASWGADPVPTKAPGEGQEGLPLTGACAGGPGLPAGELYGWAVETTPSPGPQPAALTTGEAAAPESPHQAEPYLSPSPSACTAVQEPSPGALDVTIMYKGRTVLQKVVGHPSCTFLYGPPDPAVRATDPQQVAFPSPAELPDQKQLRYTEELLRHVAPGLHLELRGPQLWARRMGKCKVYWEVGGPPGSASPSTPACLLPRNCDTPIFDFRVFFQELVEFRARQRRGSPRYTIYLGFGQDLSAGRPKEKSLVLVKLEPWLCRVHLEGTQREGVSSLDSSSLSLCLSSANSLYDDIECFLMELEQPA
Sequence,log fluorescence [z-score]
GACGGACCGGGGTATCGGGACGTGCTA,-0.538
TTAGGTTTCGAGTTTCGGTTAGTGCTA,12.6
TTAGATATCAGTATCGAGTAGTGCTAG,0.289
AGATATTCAGGTATATAAAGGTGCTAG,0.14
AGACAGAAGGGAAACAGGTTGGTGCTA,-0.0979
ATGCATGTAAATAATCAGACAGTGCTA,-0.357
GACGAAATGGGGTATCGAGACGTGCTA,-0.342
GTTTTTTTCTACTTCTCTTTGTGCTAG,3.1
TTAGATTTTTTTTCCTAATTGTGCTAG,0.918
TCATGCTTGTGTCTGGGACTGTGCTAG,-0.664
CATCTTCTGGATTTTTTAGCGTGCTAG,0.25
TTAGATCTCAGACTGGTTTAGTGCTAG,0.051
GACGATCTCAGTTTCGAGAAGTGCTAG,1.78
TTTGGTCTCCTTCTCCTTTAGTGCTAG,0.645
TTAGGTTTCTGGACTGGGTTAGTGCTA,0.724
TTAGGTATCTGGTATCGGTTAGTGCTA,1.11
GCCACCGGTCTCCATGGGTCGTGCTAG,-0.379

# Study 3 — method: RNA Bind-n-Seq; molecule type: RNA; sample: in vitro; concentration: not given; baseline: input RNA pool; reading: higher = stronger binding
# Target: RING finger protein unkempt homolog, zinc fingers 1-6, GST-SBP tag (UNK, Homo sapiens, UniProt Q9C0B0, residues 30-357)
# Setting: RNA with constant flanks, human and mouse sites, ends assumed
# Constant ends, left off below: GGGAGUUCUACAGUCCGACGAUC … CAACAGAGGAUUGAGCAUCA
# Residues (chain): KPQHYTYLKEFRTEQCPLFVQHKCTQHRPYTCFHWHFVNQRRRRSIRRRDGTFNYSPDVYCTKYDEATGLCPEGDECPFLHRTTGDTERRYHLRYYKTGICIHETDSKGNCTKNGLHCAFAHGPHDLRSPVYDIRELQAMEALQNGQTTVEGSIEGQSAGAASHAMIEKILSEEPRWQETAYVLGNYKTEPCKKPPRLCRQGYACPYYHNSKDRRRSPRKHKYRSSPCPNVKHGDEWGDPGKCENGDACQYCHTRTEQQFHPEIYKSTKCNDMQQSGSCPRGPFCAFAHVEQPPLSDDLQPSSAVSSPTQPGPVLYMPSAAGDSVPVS
Sequence,bound/input enrichment
GAUGUGUCUCCAUCUCUGCAUGCUGAGGUUGGCUCCCCACAUUCCACAGAAGUAGAUGACUCCCUUUCAGUGUCUGUUGUGCAAACACCUACCACAUUCCAGGAAACAGAAAUGUCUCCA,0.104 ratio
AAGGGAACUUCAAGACCCCAGAUAUUGACCUUGCAAAGGAUGUUUUUGCAGCCCUGGGCUCUCCUGCUCCCGCCACUGGGGCCAGUGGACAAGCCUCUGAGCUUGCUCCUUCCACUGCAG,0.123 ratio
UGGCUCCGCGGUGUCUUCCGCUUCGCCACCGAUCGAAACGACUUCCGGAGGAACUUGAUCCUCAAUUUGGGACUCUUUGCUGCGGGAGUCUGGCUGGCCAGGAACUUGAGUGACAUUGAU,0.0976 ratio
CUGUUACAAGGUUGGUACAUUGUGACCUACGCCUUGGGAAUUUACCACCUAAACCUUUUCAUUGCGUUCCUUUCUCCCAAAGUGGAUCCUUCCUUGAUGGAAGACUCAGAUGACGGCCCU,0.188 ratio
CUCGCCUGCCUUGGGCUUUCCCGGAGGCCAGAAGGGAGGUUCACCUGCAGCGAGUGUGCCUCAGGUGUCGCCCGGCACAGUCUGGGGUCUGUGAGGAUGAUGAGAGGACACCUGCACAGC,0.114 ratio
ACUGGAGAGAAACCUUACAAAUGUAGUGAAUGUGAGAAAUCCUUUACAGUAGGCUCGGAUCUUAGAAUGCAUCAAAAAAUUCAUACUGGAGAGAAACCUUACAAAUGUAGUGACUGUGAU,0.463 ratio
UAGACCAAAAAUUCUGAUGACCACAUCUAGAUUAUUUUUCUAUAAAAAAAUGAUUUUCACUAUAGCGAUGUCAGUCACCACUAAGCUACUGUCCAAUUCCAUGUGAUGUGUAACUUUUAC,1.71 ratio
CAAGACCCAACCAUUUCUUCCACCUGCUUGAUUGUGCCAGUGUUUGCUCAGGCCUCUUUCUUAGUGUUGCUUUCAAAUCCUUCUCUUUCCUGGGUUGGGAAGGCCAGGCAGGGACAGAGC,1.07 ratio
UACAGCCUGGGCUCUAUGAAACUGUUUUAAACAAACAAAACAAAGAUGCCACCUCUAACUUAGUUGGCAGGGUUAGAGACUCAAUACAGUGCCAAACUUUAUAAAAAUAAACUGUGCUCU,0.263 ratio
GCUGGCCCCUUGAGCACCGGGAACCCAGGCUUUGGUUAGAGUUCAAGUUGAGUUUCCCUCUUGUUUAUGUGGCUGUGGGACAGGAGGGGCUCGUUAUCUCUCUGCUGUGGCACUGGCUGC,0.266 ratio
CCAGAGGAGAUGCUGUCUAUGUACUGUGCUACUCUUUGAUUCUACUUUCCAUUGACCUCACUAGUCCUCAUGUGAAGAAUAAAAUGUCAAAAAGAGAGUUUAUUCGAAAUACGCGCCGUG,0.109 ratio

# Study 4 — method: RNA Bind-n-Seq; molecule type: RNA; sample: in vitro; concentration: 365 nM; baseline: no-protein control; reading: higher = stronger binding
# Target: RNA binding protein fox-1 homolog 2, RRM domain, GST-SBP tag (RBFOX2, Homo sapiens, UniProt O43251-10, residues 100-194)
# Setting: natural RNA segment, single round, ends assumed
# Constant ends, left off below: GGGAGUUCUACAGUCCGACGAUC … UGGAAUUCUCGGGUGCCAA
# Construct (chain): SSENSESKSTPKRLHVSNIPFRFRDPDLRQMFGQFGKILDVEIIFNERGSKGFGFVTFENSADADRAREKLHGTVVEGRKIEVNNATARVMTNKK
Sequence,RBNS enrichment (R)
AUUUGAAGGCCAAGAGACCUUUGCUCUGCUGUGUGAGUCAGCCAGUCAAAAGCCCAGAAAGGCAAAAACCCAGCUUUCUUGUUUGGAGAGACAUGGGGCAUGUGUCUGCC,0.842
UUUGAAGUCAGUGGUUUAGAAAUGAGAUACCAAUGUUAAUGAAAAGUAUGUACUCUUUGCUUUUGCAUGGCUUGGCUUAGUAUCCAAGGUAUAUUAGAGCCACUUGAAAG,3.08
CGGCAUGAUCUAUGUUCUGGUGAGCUCUUAGAACAACACAGAAGAAUCGGUCCAGUUAAGUGCAUGCAAAACGCCACCAAUGAAGGGAUUCUAUCCAGCAAGGUCCUGUU,27.6
UGGGCGGGGUUCCAAGGCCUGCGAGCUGGGAAAGGACAGAUGAGGGGACCUCGUGCCUUCUUGCUGUCAUGCAAUGACCCCGCCUUAUGUUGCCGAAAUAAGCAACUCUU,0.295
CUGGGCUGCGGGGAGGCUCUUUUUCUCCCUGGCCUCCAGUGCCCACCAGGAGGAUCUGCGCACGGUGCACAGCCCACCAGAGCACUACAGCCUUUUAUUGAGUGGGGCAA,0.45
AGAAGAAGCUUCUUCCAUCUUAUCUACCUACUGCAGCUGCUGCUUUGCGGGGGGGCCCUACUGUACUGAGGGGAAACCCACAAGUGAGCAUGGGGGAAUGCCCAUCCUGG,0.857
AACAGAGCGCCAGGCUUCACUCUGCAGAGAGAAAGUGCUCUGUCCCUGUAGCGUCUGAUUCCACUUACCAGACACCCACGCAUCUGCAGGAUGUCUGAUGCAGAGCGGUU,0.158
UUCACUGUGGAGACAAUGACAGUAUUCUCUGUGCCAGUGUCGCUGAUGGAGCUCCCCCUCCCCACAGGGCUGCCAUUACCAGACCACGGCCCUGCAGGGCCCUGGGCUCC,0.364
UGUACAGUGCUAUAGCUGAAGAGUAAUAGGCUAGGCUAUCUGUAUAGCCUAAGUGUGUAACAGGCUAUAUACAUAUCAUCAGGGUCUGUGUAAGUAUACUCUGUGAUGUU,0.628
CCAAGUAACUUGGCUGUGAAAUGGCAGAAGGAACCUUCUCUCAAGCAGGUAGGUCAAGAGAUGGGCCAUAUAUAUACUGAUAUACUGGUUGACCUGCCAUCACCGCUCAC,1.51
GGCGUGGGUGCUCACCUCACUUAUCCUCGGGGUUUGGGACCUGGCAUCAGGACCUCUCCACCCAGGAUCCUCCAUGCCACAUGGUCACUGCUCUCCUCAGGGACUGGGAC,0.276
CCAUGAUGAAUGCCAUCAGUCCCUCCUGCUGUUGCCUCCCUGUGACCUGGAGGACAGUGUGUGCCAUGUCUCCCAUACUAGAGAUAAAUAAAUGUAGCCACAUUUACUGU,0.427

# For quick reference, copied from above (study 1):
Sequence,E-score
AGCGCCAG,0.203
GGATAGAA,-0.016
CCTCTTTA,-0.208
TCAAAGAA,-0.0921
CTCTTCAC,-0.239
AGGTCTCG,-0.128
CGGTTCAA,0.209
ATGTACAT,-0.0135
CTCCCTTC,-0.314
TAGGTAAA,-0.115
